Experimental data collected from several papers.
Compare with care: the assays were run in different laboratories. Values joined by “and” are separate records of one study, mostly repeats; a detail may differ. ± gives the spread as reported.
KCNH2: Voltage-gated inwardly rectifying potassium channel KCNH2 (KCNH2, Homo sapiens, UniProt Q12809)
Sequence of UniProt Q12809 (whole entry, unmodified, looked up): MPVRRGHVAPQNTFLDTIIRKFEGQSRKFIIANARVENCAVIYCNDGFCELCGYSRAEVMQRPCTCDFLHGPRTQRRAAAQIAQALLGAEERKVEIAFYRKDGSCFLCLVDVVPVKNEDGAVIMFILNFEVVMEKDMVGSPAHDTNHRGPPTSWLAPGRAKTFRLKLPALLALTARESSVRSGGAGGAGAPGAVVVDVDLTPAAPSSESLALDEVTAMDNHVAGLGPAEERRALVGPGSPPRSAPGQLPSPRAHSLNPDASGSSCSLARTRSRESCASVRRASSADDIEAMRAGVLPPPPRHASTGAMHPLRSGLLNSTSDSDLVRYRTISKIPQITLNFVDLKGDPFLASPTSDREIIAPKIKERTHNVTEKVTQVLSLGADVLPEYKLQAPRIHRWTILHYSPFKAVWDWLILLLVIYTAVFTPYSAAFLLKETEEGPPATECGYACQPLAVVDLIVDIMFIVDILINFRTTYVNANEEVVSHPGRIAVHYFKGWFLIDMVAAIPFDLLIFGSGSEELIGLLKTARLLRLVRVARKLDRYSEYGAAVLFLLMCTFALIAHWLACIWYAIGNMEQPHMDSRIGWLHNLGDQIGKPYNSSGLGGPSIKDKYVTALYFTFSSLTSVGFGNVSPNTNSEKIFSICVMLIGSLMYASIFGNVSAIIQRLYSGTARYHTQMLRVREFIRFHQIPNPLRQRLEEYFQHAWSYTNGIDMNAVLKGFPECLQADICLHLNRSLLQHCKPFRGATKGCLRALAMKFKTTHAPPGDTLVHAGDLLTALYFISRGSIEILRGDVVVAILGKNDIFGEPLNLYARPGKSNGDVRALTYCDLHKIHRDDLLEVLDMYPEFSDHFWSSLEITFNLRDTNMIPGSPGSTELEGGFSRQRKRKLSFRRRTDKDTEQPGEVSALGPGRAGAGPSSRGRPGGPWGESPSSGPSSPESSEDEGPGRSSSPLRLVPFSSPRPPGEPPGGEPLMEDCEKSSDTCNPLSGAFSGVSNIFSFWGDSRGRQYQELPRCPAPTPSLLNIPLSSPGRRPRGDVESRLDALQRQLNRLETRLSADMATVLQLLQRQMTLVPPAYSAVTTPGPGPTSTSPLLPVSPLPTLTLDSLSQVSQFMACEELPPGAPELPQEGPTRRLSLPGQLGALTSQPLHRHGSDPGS

SMILES	target	test	test system	conditions	IC50
CS(=O)(=O)c1sc(NC(=O)Nc2ccc(Cl)cc2)c2c1C=CCC2	KCNH2	ligand displacement, FP		cell membranes	> 80 µM
C[C@H](NC(=O)c1cc(S(=O)(=O)N2CCOCC2)ccc1N1CCCCC1)c1cc2ccccc2o1	KCNH2	ion current, inhibitor			8.05 µM
CCN(c1nc(N[C@H](CC(N)=O)C(=O)NC)nc(N2CCN(c3ccccc3C#N)CC2)n1)C1CCCCC1	KCNH2	ion current, inhibitor			> 100 µM
CCNCC#CCNc1ccnc2cc(Cl)ccc12	KCNH2	binding, inhibitor, fluorescence polarization		4 h	5.3 µM
Cc1ncc2nc(C)n(Cc3c(F)cc(S(N)(=O)=O)cc3F)c2c1-c1ccccc1	KCNH2	ion current, inhibitor, patch clamp			11.7 µM
O=C(c1cccc(S(=O)(=O)N2CCc3ccccc3C2)c1)N1CCO[C@H](c2ccc(F)cc2)C1	KCNH2	ion current, inhibitor			8.93 µM
CN(C)C(CNC(=O)Nc1cc(C(F)(F)F)ccc1N1CCOCC1)c1ccncc1 (stereo not shown)	KCNH2	ion current, inhibitor, patch clamp			> 30 µM
C=C(C)C(=O)Nc1ccc(-c2c(-c3ccc(Oc4nccc(C)n4)cc3)c3c(N)ncnc3n2C)cc1	KCNH2	ion current, inhibitor			14 µM
CCN(CC)CC#CCNc1ccnc2cc(Cl)ccc12	KCNH2	binding, inhibitor, fluorescence polarization		4 h	7 µM
CCOc1c(C(C)(C)O)sc2cnc(Nc3ccc(N4CCC(N5CC6(COC6)C5)CC4)cc3OC)nc12	KCNH2	ion current, inhibitor, patch clamp	CHO		21.4 µM
NCCCNc1nc2cc(Cl)ccc2n1Cc1ccccc1	KCNH2	ion current, inhibitor			1.63 µM
CN(c1ccccc1)S(=O)(=O)c1cccc(C(=O)N2CCN(C(=O)Cc3ccc(F)cc3)CC2)c1	KCNH2	ion current, inhibitor			9.46 µM
CCC(=O)N(C)c1ccc(Cl)c(Cl)c1	KCNH2	ion current, inhibitor, patch clamp	HEK293		> 100 µM
O=c1c2cc(-c3ccc(Cl)cc3)nc(-c3cccnc3)c2ncn1C1CCC(OP(=O)(O)O)CC1 (stereo not shown)	KCNH2	ion current, inhibitor			> 10 µM
Cn1cc(-c2cc(N3CCCCS3(=O)=O)ccc2N[C@H]2CC[C@H](C)CC2)c2cc[nH]c2c1=O (stereo in doubt)	KCNH2	ion current, inhibitor			> 40 µM
O=C(COc1cc2ccccc2cc1C(=O)NCc1ccccc1)Nc1ccccc1N1CCCC1=O	KCNH2	ion current, inhibitor			13.3 µM
Cc1ccc(O)c(C)c1OCC(C)N (stereo not shown)	KCNH2 (Homo sapiens, UniProt Q12809, F656A)	inhibitor	CHO		436 ± 130 µM
O=C(C1CCN(c2nnnn2-c2ccccc2)CC1)N1CCCc2ccccc21	KCNH2	ligand displacement, FP		4 h, cell membranes	10.6 µM
Cc1cccc(C)c1NC(=O)CC(C)NCc1cccc2ccccc12 (stereo not shown)	KCNH2	ion current, inhibitor, patch clamp	tsA201	pH 7.4	6 µM and 5.9 µM
